Results gathered from unrelated publications.
Each line is one published result; not all experiments were run side by side. ± marks the error that the study gave.

| Structure (SMILES) | cell line | assay | test system | setting | IC50 |
| --- | --- | --- | --- | --- | --- |
| C[C@H]1C(OCCCCCCCCCCCC[P+](c2ccccc2)(c2ccccc2)c2ccccc2)O[C@@H]2O[C@@]3(C)CCC4[C@H](C)CCC1[C@]42OO3 (stereo partly shown) | HUVEC | cell viability, MTT |  | 72 h | 0.0761 ± 0.0073 µM |
| CCN1CC2(COC)CCC(OC)C34C5CC6C(OC)C(O)C(O)(C(CC23)C14)C5C6OC(=O)c1ccccc1 (stereo not shown) | HBE | cell growth or viability, MTT |  |  | 31 µM |
| COC(=O)CC[C@@H](NC(=O)[C@@H](Cc1ccc(OP(=O)(O)O)cc1)NC(=O)[C@@H](CC(C)C)NC(=O)[C@@H](Cc1ccccc1)NC(=O)[C@@H](Cc1ccccc1)NC(=O)Cc1ccc2ccccc2c1)C(=O)OC | OVSAHO | cell growth or viability |  |  | < 12.5 µM |
| C[C@H]1[C@H](OC(=O)CCC(=O)Oc2ccc(-c3cc(=S)ss3)cc2)O[C@@H]2O[C@@]3(C)CC[C@H]4[C@H](C)CC[C@@H]1[C@@]24OO3 | L02 | cell growth or viability, CCK-8 |  | 72 h | 9.86 µM |
| F[P-](F)(F)(F)(F)F.OCP(CO)CO.OCP(CO)CO.OCP(CO)CO.OCP(CO)CO.[Cu+] | CCD-18Co | cell growth or viability, MTT |  | 72 h | 39 µM |
| O=C(C[P+]([Au-][Cl])(c1ccccc1)c1ccccc1)[O][Ti+2][O]C(=O)C[P+]([Au-][Cl])(c1ccccc1)c1ccccc1.c1cc[cH-]c1.c1cc[cH-]c1 | HEK-293T | cell growth or viability, XTT |  | 24 h | 24 µM |
| CCN1CC2(COC)CCC(O)C34C5CC(C(CO)OC)CC5C(=O)C(C(OC)C23)C14 (stereo not shown) | NCI-H460 | cell growth or viability, MTT |  |  | 28.4 µM |
| [Cl][Au].[Se]=c1n(C2CCCCC2)ccn1C1CCCCC1 | human ovarian cancer cells | cell viability, MTT |  | 72 h | 2.5 ± 0.6 µM |
| CC1(C)OC2C(COP(=O)(O)O)OC(n3cnc4c(=O)[nH]c(NC(=O)c5ccccc5)nc43)C2O1 (stereo not shown) | Vero | cell growth or viability |  |  | > 100 µM |
| Cc1cc(Nc2nc(C[C@@]3(C(=O)O)CCN(Cc4cccc(Cl)c4F)[C@H](C)C3)cc(C)c2F)[nH]n1 | NCI-H1650 | cell growth or viability, ATP luminescence |  | 5 days | 0.365 µM |
| O=C(Cc1ccc2ccccc2c1)N[C@H](Cc1ccc(O)cc1)C(=O)N[C@H](Cc1ccccc1)C(=O)N[C@H](Cc1ccccc1)C(=O)N[C@H](Cc1ccc(O)cc1)C(=O)O | T98G | cell growth or viability, MTT |  |  | > 500 µg/mL |
| O=S(=O)([O][Pt]([O]S(=O)(=O)C(F)(F)F)([PH](c1ccccc1)(c1ccccc1)c1ccc[cH-]1)[PH](c1ccccc1)(c1ccccc1)c1ccc[cH-]1)C(F)(F)F.[Fe+2] | T98G | cell growth, MTT |  | 24 h | 32.5 µM |
| CC(=O)C(NC(=O)c1ccccc1-c1ccc(C(F)(F)F)cc1)c1cccc(C(F)(F)F)c1 (stereo not shown) | KHYG-1 with Ba/F3-MICA cells | NKG2D-mediated cell killing, inhibitor |  | 6 h | > 40 µM |
| COc1c(Oc2c(O)c(OC)c(OC)c3c2ccc2cc(O)ccc23)cc2c(c1OC)-c1ccc(O)cc1CC2 | human Fibroblast | cell growth or viability, CCK-8 |  | 24 h | 35 µM |
| Cc1cc(C)c(N2CCN(c3c(C)cc(C)cc3C)C2=[Se])c(C)c1.[Cl][Au] | LoVo | cell growth or viability, MTT |  | 72 h | 1.6 µM |
| OC[C@H]1[C@@H](O)[C@@H](O)CN1Cc1ccc(I)cc1 | U2OS | cell growth or viability, MTS |  | 72 h | 169 µM |
| CCN1CC2(COC)CCC(OC)C34C5CC6C(OC)CC(O)(C(CC23)C14)C5C6OC(C)=O (stereo not shown) | HBE | cell growth or viability, MTT |  |  | 27.7 µM |
| Cc1cc(C)c(-n2c[n+](-c3c(C)cc(C)cc3C)c3c2-c2cccc4cccc-3c24)c(C)c1.[Cl][Pd-]([Cl])[CH2]C=Cc1ccccc1 | 2008 spheroids | cell viability, APH | 3D spheroids | 72 h | 45 ± 5 µM |
| [Cl][Os][Ge]([Cl])([Cl])[Cl].c1ccc(P(c2ccccc2)c2ccccc2)cc1.c1ccccc1 | Dalton's lymphoma cells | cell viability, MTT |  | 24 h | 1.7 ± 0.06 µM |
| CNC(=O)c1cc(Oc2ccc(NC(=O)c3ccc(-c4cccc(COC(=O)CCC(=O)OC5OC6OC7(C)CCC8C(C)CCC(C5C)C68OO7)c4)cn3)cc2)ccn1 (stereo not shown) | L02 | cell growth or viability, MTT |  | 72 h | > 100 µM |
| CC(C)OC(=O)C(n1cccn1)n1cccn1.F[P-](F)(F)(F)(F)F.[Cu+].c1ccc(P(c2ccccc2)c2ccccc2)cc1 | BCPAP | cell growth or viability, MTT |  | 72 h | 11.4 µM |
| O=C1CC2(C1)C(=O)[O][Pt]1([Cl])([O]C(=O)C(Cl)Cl)([NH][C@@H]3CCCC[C@H]3[NH]1)[O]C2=O | HUVEC | cell growth or viability, MTT |  |  | 56.5 µM |

| Structure (SMILES) | cell line | assay | test system | setting | IC50 |
| --- | --- | --- | --- | --- | --- |
| C[C@@H]1CCC2[C@@H](C)[C@@H](OCCC[P+](c3ccccc3)(c3ccccc3)c3ccccc3)O[C@@H]3O[C@@]4(C)CCC1[C@@]23OO4 (stereo partly shown) | HUVEC | cell viability, MTT |  | 72 h | 0.434 ± 0.0206 µM |
| C1CCN(C2CCNCC2)CC1.CCCC(CCC)C(=O)[O][Pt]([OH])([Cl])[Cl].CCCCN | BXPC-3 | cell growth or viability |  |  | 4.43 µM |
| COCC12CCC(OC)C34C5CC6(O)C(O)C5C(O)(C(O)C6OC)C(C(OC)C13)C4N(C)C2 (stereo not shown) | HBE | cell growth or viability, MTT |  |  | 24.8 µM |
| CNC(=O)c1cc(Oc2ccc(NC(=O)c3cc(-c4ccc(COC(=O)CCC(=O)OC5OC6OC7(C)CCC8C(C)CCC(C5C)C68OO7)cc4)ccn3)cc2)ccn1 (stereo not shown) | L02 | cell growth or viability, MTT |  | 72 h | 48.1 µM |
| CC(=O)OC[C@H]1O[C@@H](NC(=O)NC(=O)[C@@H](C)Cc2ccc(C(C)C)cc2)[C@H](OC(C)=O)[C@@H](OC(C)=O)[C@@H]1OC(C)=O | Vero | viral replication |  | range over three viruses | 45 to 58 µM |
| N[C@H](C(=O)N1CCCC1)C1CCN(c2nccc3c(-c4ncc(Cl)cc4Cl)cccc23)CC1 | human neutrophils | protein citrullination, flow cytometry, refers to: citrullinated histone H3 |  | with: ionomycin 5 µM | 1 µM |
| C[C@H]1C(OCCCCCCCCC[P+](c2ccccc2)(c2ccccc2)c2ccccc2)O[C@@H]2O[C@@]3(C)CCC4[C@H](C)CCC1[C@]42OO3 (stereo partly shown) | J82 | cell growth or viability, MTT |  | 72 h | 0.0919 µM |
| Cc1cc(C)c(-n2ccn(-c3c(C)cc(C)cc3C)c2=[Se])c(C)c1.[Cl][Ag] | human ovarian cancer cells | cell viability, MTT |  | 72 h | 3.1 ± 1.1 µM |
| Cc1cccc([C@H](NC(=O)c2cnccc2-c2ccc(C(F)(F)F)cc2)C(=O)N(C)C)c1 | KHYG-1 with Ba/F3-MICA cells | NKG2D-mediated cell killing, inhibitor |  | 6 h | 0.4 ± 0.1 µM |
| O=C(/C=C/c1ccccc1)c1cc2ccccc2oc1=O | Vero | cell viability, MTT |  | 48 h | 432 µM |
| CCN1CC2(COC)CCC(O)C34C5CC6C(OC)CC(O)(C5C6O)C(C(OC)C23)C14 (stereo not shown) | HBE | cell growth or viability, MTT |  |  | 24.3 µM |
| CN(C)C(=O)[C@H](NC(=O)c1ccccc1-c1ccc(C(F)(F)F)cc1)c1cccc(C(F)(F)F)c1 | KHYG-1 with Ba/F3-MICA cells | NKG2D-mediated cell killing, inhibitor |  | 6 h | > 40 µM |
| CCOC12C(O)C(OC)C3(O)CC(C1C3OC(=O)c1ccccc1)C13C(OC)CC(O)C4(COC)CN(CC)C1C2C(OC)C43 (stereo not shown) | HBE | cell growth or viability, MTT |  |  | 31.4 µM |
| O=C(Cc1ccc2ccccc2c1)N[C@H](Cc1ccccc1)C(=O)N[C@H](Cc1ccc(O)cc1)C(=O)N[C@H](Cc1ccccc1)C(=O)N[C@H](Cc1ccc(O)cc1)C(=O)O | T98G | cell growth or viability, MTT |  |  | > 500 µg/mL |
| CC(C)c1cccc(C(C)C)c1-n1c[n+](-c2c(C(C)C)cccc2C(C)C)c2c1-c1cccc3cccc-2c13.[Cl][Pd-]([Cl])[CH2]C=Cc1ccccc1 | 2008 | cell growth, MTT |  | 72 h | 7.2 ± 0.8 µM |
| Cc1ccnc(-c2cc(C)ccn2)c1.[C-]#[O+].[C-]#[O+].[C-]#[O+].[Re+] | H460 | cell viability |  |  | 14 ± 1 µM |
| C(#C[P+](c1ccccc1)(c1ccccc1)c1ccccc1)c1ccccc1 | human primary melanocytes and fibroblasts | cytotoxicity |  |  | > 30 µM |
| CCN1CC2(COC)C(O)CC(OC)C34C5CC6(O)C(OC)C(O)C(O)(C5C6OC(=O)c5ccccc5)C(C(OC)C23)C14 (stereo not shown) | HBE | cell growth or viability, MTT |  |  | 28.7 µM |
| C[C@H]1C(OCCCCCCCCCCC[P+](c2ccccc2)(c2ccccc2)c2ccccc2)O[C@@H]2O[C@@]3(C)CCC4[C@H](C)CCC1[C@]42OO3 (stereo partly shown) | J82 | cell growth or viability, MTT |  | 72 h | 0.0874 µM |
| CC1(CCCO[C@H]2O[C@H](CO)[C@@H](O)[C@H](O)[C@H]2O)C(=O)[O][Pt][O]C1=O.N[C@@H]1CCCC[C@H]1N | MRC5 | cell growth or viability, MTT |  |  | > 100 µM |
| N=C(N)NCCC[C@@H](N)C(=O)N[C@@H](Cc1c[nH]c2ccccc12)C(=O)N[C@@H](CCC(N)=O)C(=O)N[C@@H](Cc1c[nH]c2ccccc12)C(=O)N[C@@H](CCCN)C(=O)N[C@@H](Cc1c[nH]c2ccccc12)C(=O)N[C@@H](CCC(N)=O)C(=O)N[C@@H](Cc1c[nH]c2ccccc12)C(=O)N[C@@H](CCCNC(=N)N)C(N)=O | HT-29 | cell growth or viability, MTT |  |  | > 138 µM |
